Experimental data pooled from the literature.
Every numbered part comes from another study and shows a few of its results, in no order.

Block 1
Target: RNA binding protein fox-1 homolog 2, RRM domain, GST-SBP tag (RBFOX2, Homo sapiens, UniProt O43251-10, residues 100-194)
Technique: RNA Bind-n-Seq
Form: RNA
Matrix: in vitro
Concentration: 365 nM
Setting: natural RNA segment, single round, ends assumed
Baseline: no-protein control
Direction: higher = stronger binding
Measurement: RBNS enrichment (R)
Target sequence (chain): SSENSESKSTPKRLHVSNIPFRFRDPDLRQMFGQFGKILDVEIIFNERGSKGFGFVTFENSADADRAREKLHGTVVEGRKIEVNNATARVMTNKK
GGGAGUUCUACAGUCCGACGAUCACUUGGCGCAAGUGACUUGUGCCUCCUUGUCUGUCCUUUGUCAGCACAGGUGCAGGCAAACCCUUCCAGCUGGGUUAAUUGCCGUUUAUGGUUUACUCACUUAGGGAAAGUGGAAUUCUCGGGUGCCAA: 0.299
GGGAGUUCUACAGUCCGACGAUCCCUCCUGUUACAGUGUCUCUUGUCCCACCCUUACUGGAGGAAAAAAAAAAAAAAAACUCUAUCUCUUGGAAGUAGCUGAGGUAACCUUCCAGCUCCCUGCACCCAGAGGGUGGAAUUCUCGGGUGCCAA: 0.869
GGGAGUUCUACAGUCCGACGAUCAUGUCAGCUGAGCCUCCUGCCCUCCCCCAGGAACAUGCACGCUCACUCUGCUUCCUUGUGGGUGGCCUUUUUUUACCGAUCCCCUUUUUUAUUUUUUACAACCGGACCUCUGGAAUUCUCGGGUGCCAA: 14.6
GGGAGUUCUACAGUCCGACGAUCUUCCAAAAGGGGGUUCUCCAUUUUUUGUAGUUUUGUCUAAAUUUUUAAUGACCAUUUCCUGGAAUCAGUUUAUUAUACUGAAAACUGGGGGUGGGAGUAGGGAGCUAGUUUGGAAUUCUCGGGUGCCAA: 0.614
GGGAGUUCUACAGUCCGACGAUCAAAACAAAAAUGAAAGGAAAAGGGUCCUUAUUUGCAAGGCUACUUUAAAGUGCUACUUGAAAGCACAGGCUAGACAGAAAGCACAAGGAACCUAGGGGGUUGAUACAAUGUGGAAUUCUCGGGUGCCAA: 0.537
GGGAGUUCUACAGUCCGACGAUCAUGAAAUUCAAAAUCUUAUUUUCUAAGGUCAGUGUGCAUUUGUUUAGUUUUGAUGCUUUUCAAAUUACAUUAUUUUCCUCCCCUAUGAACAUUGUGGGGAGGGACUCUAAUGGAAUUCUCGGGUGCCAA: 0.323
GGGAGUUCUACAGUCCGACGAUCUCAGCCAGUCAGUGACUGGUGGGUUUGAAUCUGCACUUAUCCCCACCACCUGGGGACCCCCUUGUUGUGUCCAGGACUCCCCCUGUGUCAGUGCUCUGCUCUCACCCUGCUGGAAUUCUCGGGUGCCAA: 0.522
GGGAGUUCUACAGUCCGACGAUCAUUUUCUUGGUGUUCCUUUCUUCCAGCACAGUGCAAGAUAGAGUUGCUGUUGAUGCCAUAUGUUUAGACUGCUGUUCUGACCCUAUUUAUCUUUCUCUCUGCCAUUUGGAUGGAAUUCUCGGGUGCCAA: 0.736
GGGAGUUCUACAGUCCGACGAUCCAGCUACUUCACACUGAGUACCUCAAAUCUGCUCUGGAGUCGAUUAUGCCACCUGUGUGUCAGGAUGCACCUGAAAGCCCUCGGCUCGGUCCUUAGACCAUCUUCCUACAUGGAAUUCUCGGGUGCCAA: 0.244
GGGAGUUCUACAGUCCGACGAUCCGUUUGAAGGUUCGUUUUUUGUUGGAACUCCGGAUGUAGACUAGCCUAGCCUCAGAUCCUCCGUGAGUAUGCCUACCAAAUGUUGUGAUUAAAGAGGCAGGCGUCACCACUGGAAUUCUCGGGUGCCAA: 0.877
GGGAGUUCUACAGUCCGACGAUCGAGAGCAGUUGUGGUGUUUGUAUACCUUGUGCCUUAUGAUCAAGGUGGGCCUUGGAGGAGGGCGGGAAAGGAGCGACCAACAUGGCGGUCCUCCACCCCUCAGCGACACCUGGAAUUCUCGGGUGCCAA: 0.603
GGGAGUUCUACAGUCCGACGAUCGUGAUCUUUUAGCAUGUGCUUUUAUAAAAAGUGGUAGCUCCAGAUGAUAUAGCAAUCUACCUUAUAUAGAGCCUUCAGAAACUGUGAGUGGAAGUGAGUGAAGCGUAUGAUGGAAUUCUCGGGUGCCAA: 12.6

Block 2
Target: RING finger protein unkempt homolog, zinc fingers 1-6, GST-SBP tag (UNK, Homo sapiens, UniProt Q9C0B0, residues 30-357)
Technique: RNA Bind-n-Seq
Form: RNA
Matrix: in vitro
Concentration: not given
Setting: RNA with constant flanks, human-mouse chimeric sites, ends assumed
Baseline: input RNA pool
Direction: higher = stronger binding
Measurement: bound/input enrichment
Construct (chain): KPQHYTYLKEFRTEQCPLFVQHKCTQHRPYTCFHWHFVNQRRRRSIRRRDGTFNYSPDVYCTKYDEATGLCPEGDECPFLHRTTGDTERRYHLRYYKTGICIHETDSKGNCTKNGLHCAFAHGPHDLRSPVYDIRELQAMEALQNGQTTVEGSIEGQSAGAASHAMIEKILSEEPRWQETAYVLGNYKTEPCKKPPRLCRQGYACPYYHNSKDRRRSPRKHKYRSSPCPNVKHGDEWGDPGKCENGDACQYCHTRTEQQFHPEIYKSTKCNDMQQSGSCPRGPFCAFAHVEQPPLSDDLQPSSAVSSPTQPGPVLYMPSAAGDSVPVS
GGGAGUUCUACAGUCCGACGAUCAUAUUUCAUAUUGCAAAGAUGUUUACAAGUAUUUUAAUUUAAGUUCAGUGAACUUUUUUGUAGCUGGGUUAAAUCUUUUUAUUUUAGGUAUGGCCUUUGGCAAAGAAACACUGUAUUUUUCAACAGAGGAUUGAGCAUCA: 0.684 ratio
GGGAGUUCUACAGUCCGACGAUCAACUUUGUGCAUCGGUUUCCCUUUGUAGCUGUUUCAAUUGGCUUCCUUGUAAAUAAAGAGAUGGAGUUUGGAAUUGUGUACAGCUGUGUGGAAGAUAAGAUGUACACCGGCAGGAAAGGGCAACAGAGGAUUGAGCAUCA: 0.333 ratio
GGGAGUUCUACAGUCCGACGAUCUCGGAUGAGGUGCUGGGUCACUUUUCAUAUCCUGAUCCUUCACAGUGGACAGAUGAAGAACUGGGAAUCCCUCCUGAUGACGAGGACUGACACUGUAAACUCUCUGGACGAGUAGGAGCACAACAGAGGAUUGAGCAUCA: 0.702 ratio
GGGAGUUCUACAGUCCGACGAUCAAAUCGUGUGUGUCCAAUAUUGAAAGUACUUUAUCUGCACUCCAGUAUGUAAGCAGUAUAGUAGUUUCUUUAGAGAAUAGGUCAGCCAUUGUAAAGUAUAAUGCAAGCUUAGUCACUCCACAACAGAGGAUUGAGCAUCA: 2.52 ratio
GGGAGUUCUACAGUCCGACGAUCCUGGCCUGGCCCUCCCCAGGGGCCUCCUUUCGUAUAGUCACUGCUUCUGCAUCAGAUACUUUCAGCUGCAACUCCCUACUGGGUGGGGCACCCAUUUGAGGCAGGGUGUUUUGGUACCCUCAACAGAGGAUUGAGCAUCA: 0.39 ratio
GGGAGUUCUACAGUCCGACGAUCGUUGCCAGCUUCCGGUUCCGUUGGGCUCGGUUCUCUCCUGAGCUACGUGUCUCUACGCUCUCAAUCCCGGUUGGGUAAAACAUGGAUCAGGUAAUGCAGUUUGUGGAUGAGCCAAGUCAGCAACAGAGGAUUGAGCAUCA: 0.0706 ratio
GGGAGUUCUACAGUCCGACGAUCGACUUUGGAACUGGUCCUCGCAACGCAGCCUUCUAUAGCCCUCAUGGACAUAUAUUAGUGCUGGCUGGAUUUGGAAAUCUUCGAGGACAAAUGGAAGUAUGGGAUGUGAAAAACUACAAGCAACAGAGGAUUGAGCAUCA: 0.303 ratio
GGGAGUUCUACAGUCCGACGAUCGGCUGCUGGUGACUGUCCUGGAGUGGCCGUGUCACCGGCCGGAGCGCGGCCAGACUAAUUUUAGAAAAUGCCAAGUAGGAAGUUUGUUGAGGGUGAAGUGGUAAGAGGCCGAUGGCCUGGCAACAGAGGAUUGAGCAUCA: 9.79 ratio
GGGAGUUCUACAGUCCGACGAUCAGCGUUCAGGAAUUCAUGACCUUUACAAGUCAACUGAUUGUGGAACGCUCGGGGAAAGGCAGCAGAGCUUCUGUCAAAGAACAAGAGUAUCUGUGCCAUGUCUACGUCCGGAGCGACAGUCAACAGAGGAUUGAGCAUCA: 0.0824 ratio
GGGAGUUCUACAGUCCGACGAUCAGAGAUAAGACAUCCAGAAAUAUGAGAGGCUCCCGGAUGAAUGGGUUGCCUAGCCCCACUCACAGCGCCCACUGUAGCUUCUACAGAACCAGAACCUUGCAGGCACUGAGUAAUGAGAAGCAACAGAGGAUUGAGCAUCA: 0.254 ratio
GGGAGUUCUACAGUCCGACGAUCAGGAGGAGAUUAAAGGGUGAGAGUGGGGUGGAAGACUGUGUCAUGGCUCUGGAGACAUUGUUUAGUGUCCUGCUUUCUCUGUGCAGACUGAUGGCCCCUUACACGCCCUUUCUGACUGAGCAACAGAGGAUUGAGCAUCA: 0.104 ratio

Block 3
Target: Histone acetyltransferase KAT6A, winged helix 2, GST fusion (KAT6A, Homo sapiens, UniProt Q92794, residues 85-181)
Technique: protein binding microarray
Form: double-stranded DNA, one strand shown
Matrix: in vitro
Concentration: not given
Setting: 8-mer, flanks averaged, mean of 2 arrays, mostly near background
Baseline: not given
Direction: higher = stronger binding
Measurement: E-score
Construct (chain): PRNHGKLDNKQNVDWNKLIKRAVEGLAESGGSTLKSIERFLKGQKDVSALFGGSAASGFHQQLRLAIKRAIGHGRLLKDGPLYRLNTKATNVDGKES
AAGTAACA: -0.157
CTTCGGCC: 0.119
GCACAACA: -0.0715
CTGCTCAC: 0.06
AAGCAACT: 0.145
CTGACTAA: 0.0838
ATCACGCG: -0.0522
CGGTGCGA: 0.252
TTAGAGAA: 0.0306
CTTCTGTA: -0.0528
ACACTGAA: 0.0874
CACAATAC: -0.171
GAGAGTTA: -0.14
GGCTAATA: 0.0858
ACTTTCCG: -0.125
CCCTTTGC: 0.151
ACATAATA: 0.0857
AACTTAGT: -0.0471
CAATACCA: -0.0757
CTGACTAC: -0.231
GCTGGGAC: -0.00531
CTATGAAA: -0.125
ATACATGC: -0.253
CTAGTCGA: 0.0959
ATCGGCTC: 0.0689

Block 4
Target: Interferon regulatory factor 7, full length, phosphomimetic (IRF7, Homo sapiens, UniProt Q92985, residues 1-503, S471D/S472D/S475D/S476D/S477D/S483D/S484D/S487D)
Sequence of UniProt Q92985 (whole entry, unmodified, looked up): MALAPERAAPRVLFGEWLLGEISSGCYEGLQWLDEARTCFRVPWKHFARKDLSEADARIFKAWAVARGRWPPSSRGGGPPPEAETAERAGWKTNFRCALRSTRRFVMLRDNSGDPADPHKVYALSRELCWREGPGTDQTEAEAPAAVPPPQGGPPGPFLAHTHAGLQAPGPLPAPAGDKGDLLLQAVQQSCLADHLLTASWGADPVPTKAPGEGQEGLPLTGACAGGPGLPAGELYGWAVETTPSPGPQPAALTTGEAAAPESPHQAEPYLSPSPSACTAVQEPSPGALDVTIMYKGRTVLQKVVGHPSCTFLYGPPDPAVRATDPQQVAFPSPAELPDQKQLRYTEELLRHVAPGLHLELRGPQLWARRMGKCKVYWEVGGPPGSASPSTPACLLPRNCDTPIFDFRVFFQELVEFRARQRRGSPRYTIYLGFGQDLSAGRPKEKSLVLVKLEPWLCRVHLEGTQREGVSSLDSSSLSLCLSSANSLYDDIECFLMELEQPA
Technique: protein-binding microarray
Form: double-stranded DNA, one strand shown
Matrix: in vitro
Concentration: 2200 nM top
Setting: 60-bp whole probe
Added: salmon DNA 0.4 mg/ml
Baseline: random background probes
Direction: higher = stronger binding
Measurement: fitted relative affinity
Shared flanks, not repeated: GCCTAGCAC … GTCTTGATTCGCTTGACGCTGCTG
GACGGTCGCGGACTGGGGACGTGCTAG: -0.66 z-score
TTAGATCTTAGTATCGATTAGTGCTAG: 0.285 z-score
TTAGGTTTCCTTTCCGTTTAGTGCTAG: 5.66 z-score
GACGGTTTCGGTCTCGCGACGTGCTAG: 6.62 z-score
GACGGCTCCCTTTTCCTGACGTGCTAG: 1.01 z-score
TTAGGTACCGGGTTTCGGTTAGTGCTA: 3.73 z-score
GACGGTCTCAGTTTCGGGACGTGCTAG: 3.8 z-score
GAGGGTTCCGGTTTCGGGACGTGCTAG: 4.37 z-score
GACGGTATCGACTTTCGGGCCGTGCTA: 2.04 z-score
TTAGAACTGAGGTTCGATTAGTGCTAG: -0.317 z-score
CAGGAAATCAACTTTTTTTAAGTGCTA: -1.33 z-score
TTAGTTTTCCTTATCCTTTAGTGCTAG: 3.08 z-score
AGTTTTTCATTTTTTTTCATGTGCTAG: 2.27 z-score
GTAGGACTGGGGACTGGGTTAGTGCTA: -1.06 z-score
GACGGTCTTGGTATCGGGACGTGCTAG: 0.153 z-score
GGAGGGGGGCGGGGCGGTGGGTGCTAG: 1.79 z-score
ATGAGACTGTCACATCCCTGGTGCTAG: 0.166 z-score
TTAGAATTCGGGACTGGATTAGTGCTA: -0.534 z-score
TTCGGTTTCGGTTTCGGTTAGTGCTAG: 18.5 z-score
GACGGTTTCGGTATCCGGACGTGCTAG: 9.35 z-score
GACGGACTGCTACTGTTGACGTGCTAG: 0.183 z-score
GACGGCTTCGGTTCCGGGACGTGCTAG: 0.635 z-score
GACGGTATCCTGATCCTGACGTGCTAG: 0.777 z-score
GACGAATTCAGACTGGAGACGTGCTAG: -0.208 z-score
GTTGGGGCGGGGCGGGGTGGGTGCTAG: 1.47 z-score

A few entries again (block 3):
ACATAATA: 0.0857
AACTTAGT: -0.0471
CAATACCA: -0.0757
CTGACTAC: -0.231
GCTGGGAC: -0.00531
